Earlier results, collected from citations in different studies.
Each numbered part shows a few of the values that one paper quotes. ± gives the spread as reported.
UniProt P33535, sequence (whole entry, looked up): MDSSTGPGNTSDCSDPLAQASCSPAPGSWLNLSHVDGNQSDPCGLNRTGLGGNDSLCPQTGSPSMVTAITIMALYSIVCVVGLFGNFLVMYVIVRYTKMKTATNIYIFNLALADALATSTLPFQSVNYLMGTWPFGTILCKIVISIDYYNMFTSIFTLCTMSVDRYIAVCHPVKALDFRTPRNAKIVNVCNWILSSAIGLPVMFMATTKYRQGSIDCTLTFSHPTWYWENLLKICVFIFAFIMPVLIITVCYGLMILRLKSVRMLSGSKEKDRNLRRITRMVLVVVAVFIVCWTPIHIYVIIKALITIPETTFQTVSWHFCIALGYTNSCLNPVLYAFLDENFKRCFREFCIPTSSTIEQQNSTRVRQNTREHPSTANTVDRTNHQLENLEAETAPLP
UniProt P22756, sequence (whole entry, unmodified, looked up): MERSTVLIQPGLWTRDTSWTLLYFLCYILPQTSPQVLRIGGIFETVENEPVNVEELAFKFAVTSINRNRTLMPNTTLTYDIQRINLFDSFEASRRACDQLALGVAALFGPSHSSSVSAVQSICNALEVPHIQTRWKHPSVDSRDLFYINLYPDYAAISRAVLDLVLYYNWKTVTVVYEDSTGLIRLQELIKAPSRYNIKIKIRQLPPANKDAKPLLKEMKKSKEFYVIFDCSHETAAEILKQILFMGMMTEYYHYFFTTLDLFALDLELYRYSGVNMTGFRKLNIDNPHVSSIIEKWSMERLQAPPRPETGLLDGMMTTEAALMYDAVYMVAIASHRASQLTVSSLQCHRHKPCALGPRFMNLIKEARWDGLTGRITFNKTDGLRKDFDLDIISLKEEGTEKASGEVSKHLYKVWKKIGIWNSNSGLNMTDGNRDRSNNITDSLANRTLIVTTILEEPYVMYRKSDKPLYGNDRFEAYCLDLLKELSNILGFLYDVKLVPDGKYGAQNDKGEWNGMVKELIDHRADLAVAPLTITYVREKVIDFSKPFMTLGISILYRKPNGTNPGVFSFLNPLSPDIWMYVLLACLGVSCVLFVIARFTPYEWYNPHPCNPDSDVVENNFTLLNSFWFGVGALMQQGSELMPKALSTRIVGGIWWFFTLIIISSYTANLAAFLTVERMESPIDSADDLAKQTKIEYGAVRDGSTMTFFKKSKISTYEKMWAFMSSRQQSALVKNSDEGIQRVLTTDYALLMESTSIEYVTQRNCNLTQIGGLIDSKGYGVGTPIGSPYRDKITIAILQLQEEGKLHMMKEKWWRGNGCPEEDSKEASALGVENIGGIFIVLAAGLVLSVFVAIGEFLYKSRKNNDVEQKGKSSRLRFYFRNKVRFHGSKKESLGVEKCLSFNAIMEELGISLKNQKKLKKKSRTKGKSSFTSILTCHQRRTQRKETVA
UniProt P42336, sequence (whole entry, unmodified, looked up): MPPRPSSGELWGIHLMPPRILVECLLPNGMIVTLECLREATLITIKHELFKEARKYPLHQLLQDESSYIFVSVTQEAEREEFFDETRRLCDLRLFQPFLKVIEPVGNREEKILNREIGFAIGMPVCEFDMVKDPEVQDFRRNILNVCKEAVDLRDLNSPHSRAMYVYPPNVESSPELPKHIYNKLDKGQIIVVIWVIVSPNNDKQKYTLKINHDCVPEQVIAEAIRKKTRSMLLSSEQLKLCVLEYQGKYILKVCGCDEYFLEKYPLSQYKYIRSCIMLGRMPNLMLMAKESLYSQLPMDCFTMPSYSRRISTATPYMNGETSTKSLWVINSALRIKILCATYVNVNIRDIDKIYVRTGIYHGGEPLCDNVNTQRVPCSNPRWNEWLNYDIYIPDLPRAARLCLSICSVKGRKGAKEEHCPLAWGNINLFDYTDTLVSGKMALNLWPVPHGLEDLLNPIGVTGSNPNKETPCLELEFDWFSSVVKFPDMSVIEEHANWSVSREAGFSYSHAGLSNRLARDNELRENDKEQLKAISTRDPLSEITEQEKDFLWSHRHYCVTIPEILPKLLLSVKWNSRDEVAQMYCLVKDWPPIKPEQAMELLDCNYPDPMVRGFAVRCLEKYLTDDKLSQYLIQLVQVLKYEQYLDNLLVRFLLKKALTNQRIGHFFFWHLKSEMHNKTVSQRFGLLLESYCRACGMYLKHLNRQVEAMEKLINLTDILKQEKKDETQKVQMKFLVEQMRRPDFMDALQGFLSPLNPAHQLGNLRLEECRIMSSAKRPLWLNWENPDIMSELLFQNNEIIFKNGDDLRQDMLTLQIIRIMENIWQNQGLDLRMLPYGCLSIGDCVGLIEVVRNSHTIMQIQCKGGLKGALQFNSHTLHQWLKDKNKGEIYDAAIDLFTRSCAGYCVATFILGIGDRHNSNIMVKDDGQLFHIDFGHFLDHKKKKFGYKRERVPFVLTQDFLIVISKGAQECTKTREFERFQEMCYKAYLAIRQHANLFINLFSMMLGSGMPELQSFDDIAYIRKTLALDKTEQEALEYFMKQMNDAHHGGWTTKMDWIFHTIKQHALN
UniProt O95749, sequence (whole entry, looked up): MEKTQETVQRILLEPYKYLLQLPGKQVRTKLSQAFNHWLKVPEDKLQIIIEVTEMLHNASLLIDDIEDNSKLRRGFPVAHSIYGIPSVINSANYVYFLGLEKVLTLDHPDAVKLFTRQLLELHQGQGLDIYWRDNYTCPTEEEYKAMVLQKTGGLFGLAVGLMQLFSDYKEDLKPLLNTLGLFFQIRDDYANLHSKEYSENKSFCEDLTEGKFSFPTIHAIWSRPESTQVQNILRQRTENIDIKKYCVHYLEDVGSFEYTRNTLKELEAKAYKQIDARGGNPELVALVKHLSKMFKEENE

Block 1 — observed: peptide-MHC binding; form: peptide
Target: HLA class I histocompatibility antigen, A alpha chain, allele A*26:03 (Homo sapiens, UniProt P04439)
Sequence | IC50
TIHLATAPK | > 20 µM
EIIWPDRQM | 0.222 µM
FENDIDEIL | > 20 µM
REVFYFGKF | > 20 µM
FRHSVVVPY | > 20 µM
LYNTIATLY | > 20 µM
STFAASGPF | 0.187 µM
WHQARFEEL | > 20 µM
AADFPGIAR | > 20 µM
YYKDDISYF | > 20 µM
QTWHGDAPY | 0.277 µM
GRRPLKNRK | > 20 µM
HEVHAVWPG | > 20 µM
AVFDSFVER | > 20 µM
ILQDRIRMY | > 20 µM
RSLYNTIATLY | > 20 µM
EVIKYGIIY | 0.059 µM
KYFVRSTEK | > 20 µM
WMACHSAAF | 0.158 µM
SRWAISHWL | > 20 µM
SQIETGTPF | 0.07 µM
GELRKAICL | > 20 µM
LLRDKDGVY | > 20 µM
STYQPLPLY | 0.251 µM
QWSPGPGRL | > 20 µM

Other studies, line by line
SMILES | tested on | test | test system | setting | how to read | endpoint | result
CC(=O)N1CC[C@@H](NC(=O)[C@@H](N)Cc2c(C)cc(O)cc2C)c2cc(Cc3ccccc3)ccc21 | Mu-type opioid receptor (Oprm1, Rattus norvegicus, UniProt P33535) | agonist |  | concentration not given |  | stimulation | 76 ± 4.2%
Nc1ncnc2c1ncn2[C@@H]1O[C@H](COP(=O)(O)OP(=O)(O)OP(=O)(O)O)[C@@H](O)[C@H]1O |  | phosphate ionisation | aqueous solution |  |  | pKa4 | 7.1
CN(C)CCC[C@]1(c2ccc(F)cc2)OCc2cc(C#N)ccc21 | sigma-1 receptor | binding |  |  |  | Ki | 0.05 µM
[H]/N=C(/N)N[C@H]1[C@H](O)[C@@H](O)[C@H](O[C@@H]2O[C@@H](C)[C@](O)(C=O)[C@H]2O[C@@H]2O[C@@H](CO)[C@H](O)[C@@H](O)[C@@H]2NC)[C@@H](N/C(N)=N\[H])[C@@H]1O | bacterial 30S ribosomal protein S12 |  |  | -25 |  | Kd | ~1 µM
COc1cccc2c1C(=O)c1c(O)c3c(c(O)c1C2=O)C[C@@](O)(C(=O)CO)C[C@@H]3O[C@H]1C[C@H](N)[C@H](O)[C@H](C)O1 | HCT-116 p53-/- | cell growth |  |  | relative to: p53-/- over wild type | sensitivity ratio | ~2 fold
O=S(=O)(O)C(F)(F)C(F)(F)C(F)(F)C(F)(F)C(F)(F)C(F)(F)C(F)(F)C(F)(F)F |  |  | mice, female |  |  | half-life | 38 days
CC1(C)NC(=O)C(Cc2ccc(O)cc2)NC(=O)CNC(=O)C(Cc2ccc3ccccc3c2)NC(=O)C(CCCN=C(N)N)NC1=O (centres unmarked) | CXCR4 wild type |  |  |  |  | EC50 | 2.9 µM
NC(CC1(C(=O)O)CC2OC(CO)C(O)C(O)C2O1)C(=O)O (centres unmarked) |  |  | mouse | intracerebroventricular, preliminary |  | seizure-inducing dose | 0.11 nmol/mouse
Nc1ncc(-c2nc(N3CCOCC3)nc(N3CCOCC3)n2)c(C(F)F)n1 | Phosphatidylinositol 4,5-bisphosphate 3-kinase catalytic subunit alpha isoform (PIK3CA, Homo sapiens, UniProt P42336, C420R) | KinomeScan competition binding |  | 10 µM |  | remaining binding | 0%
CC[n+]1c(-c2ccccc2)c2cc(N)ccc2c2ccc(N)cc21 | calf thymus DNA | ethidium bromide displacement |  |  |  | DNA binding constant | 1.2e+06 M⁻¹
CC(C)C[C@H](NC(=O)CNC(=O)c1cc(Cl)ccc1Cl)B(O)O |  |  | plasma |  |  | fraction unbound in plasma | 0.01
CC(C)=CCC/C(C)=C/CCn1cc(CC(P(=O)(O)O)P(=O)(O)O)nn1 | Geranylgeranyl pyrophosphate synthase (GGPS1, Homo sapiens, UniProt O95749) |  |  |  |  | IC50 | 0.173 ± 0.013 µM
C[C@]12CC[C@H]3[C@@H](CCC4=CC(=O)CC[C@@]43C)[C@@H]1CC[C@@H]2O | aromatase (CYP19A1, human placenta) | substrate |  |  |  | Km | 0.21 µM
CN[C@H]1[C@H]2O[C@@](C[C@H](N)C(=O)O)(C(=O)O)C[C@H]2OC[C@H]1O | Glutamate receptor ionotropic, kainate 1 (Rattus norvegicus, UniProt P22756, del402-416) |  |  |  |  | Ki | 0.0005 µM
OCCOc1ccccc1 |  |  | plasma | literature value |  | fraction unbound | 0.56
COc1ccc(C[C@@H](C)[C@@H](C)Cc2ccc(OC)c(OC)c2)cc1OC |  |  | human, recurrent high-grade glioma | intravenous, dose not given |  | median overall survival | 5.9 months
C[C@@H](O)[C@@H]1NC(=O)[C@H](CCCCN)NC(=O)[C@@H](Cc2c[nH]c3ccccc23)NC(=O)[C@H](Cc2ccccc2)NC(=O)[C@@H](NC(=O)[C@H](N)Cc2ccccc2)CSSC[C@@H](C(=O)N[C@H](CO)[C@@H](C)O)NC1=O |  |  | healthy volunteers | intravenous, 25 200 µg |  | clearance | 10 to 14 L/h
C=CCN1C[C@H](C)N([C@H](c2ccc(C(=O)N(CC)CC)cc2)c2cccc(OC)c2)C[C@H]1C |  |  |  | pH 7 |  | logD | 3.28
C[C@H]1C[C@@H]2[C@H]([C@@H](O)C[C@@]3(C)[C@H]2CC[C@]3(O)C(=O)CO)[C@@]2(C)C=CC(=O)C=C12 |  |  | human, plasma | dose not given, range of reported values |  | AUC | 0.094 to 10.8 µM·h
C[C@@H]1C[C@H]2[C@@H]3CCC4=CC(=O)C=C[C@]4(C)[C@@]3(F)[C@@H](O)C[C@]2(C)[C@@]1(O)C(=O)CO |  |  |  |  |  | logD | 1.9
COc1ccc2c(c1)[nH]c1c(C)nccc12 | human CLK3 | kinase activity, inhibitor |  |  |  | IC50 | > 10 µM
O=C(O)C(F)(F)C(F)(F)C(F)(F)C(F)(F)C(F)(F)C(F)(F)C(F)(F)F |  | IgM production suppression | C57BL/6 mouse, adult |  |  | NOAEL | 1.88 mg/kg body weight
CC(C)c1ccc(O)c(=O)c(O)c1 | HepDES19 | MTS |  |  |  | CC50 | 25 ± 20 µM
CC(C)(C)c1cc(O)ccc1O |  |  | dog |  |  | NOAEL | 72 mg/kg/day
C=C1C[C@@H]2[C@H](CC[C@]3(C)C(=O)CC[C@@H]23)[C@@]2(C)C=CC(=O)C=C12 |  |  | human, plasma | dose not given, range of reported values |  | AUC | 0.099 to 3.61 µM·h
